Published values from different studies.
Lines come from different studies, so protocols differ. ± gives the spread as reported.

NCC(=O)N1CCC[C@H]1C(=O)N1C[C@H](O)C[C@H]1C(=O)O — log beta (potentiometric titration; 25 °C, MA3 complex, together with: Fe(III)): 30
Cc1cn(CC(=O)N[C@@H](Cc2ccccc2)C(=O)N[C@@H](Cc2ccccc2)C(=O)N[C@H]2C(O)O[C@H](CO)[C@@H](O)[C@@H]2O)c(=O)[nH]c1=O (stereo partly drawn) — pH of hydrogelation (water; 3.0 wt%, pH-triggered gelation): ~8.5
CN1CCN(c2cc(-c3ccccc3CO)c(N(C)C(=O)C(C)(C)c3cc(C(F)(F)F)cc(C(F)(F)F)c3)cn2)CC1 — duration of quantifiable plasma levels (human, plasma; dose not given): 10 days
CC(C)C[C@H](NC(=O)[C@H](Cc1ccccc1)NC(=O)[C@H](CCC(=O)O)NC(=O)[C@H](CCC(=O)O)NC(=O)[C@H](C)NC(=O)[C@H](Cc1ccccc1)NC(=O)[C@H](CCC(=O)O)NC(=O)[C@H](CCCNC(=N)N)NC(=O)[C@H](Cc1ccccc1)NC(=O)[C@H](C)NC(=O)[C@H](C)NC(=O)[C@H](Cc1ccccc1)NC(=O)[C@H](Cc1c[nH]c2ccccc12)NC(=O)[C@H](CCC(=O)O)NC(=O)[C@H](CCC(=O)O)NC(=O)[C@H](CC(C)C)NC(=O)[C@H](CCCCN)NC(=O)[C@H](CO)NC(=O)[C@H](CCCNC(=N)N)NC(=O)[C@@H](NC(=O)[C@@H](N)CCC(=O)O)C(C)C)C(=O)N[C@@H](C)C(=O)N[C@@H](CCCNC(=N)N)C(=O)N[C@@H](CC(C)C)C(=O)N[C@@H](CCCCN)C(=O)N[C@@H](CO)C(=O)O — α-helical content (circular dichroism; phosphate buffer; pH 7.4, concentration range tested): 56.9 ± 0.8%
CC/C=C\C/C=C\C/C=C\C/C=C\C/C=C\CCCCOC(CC)C(=O)O (stereo not drawn) — tissue concentration (radioactivity, 14C-labelled; Wistar rat, male, kidney medulla; oral, 100 mg/kg, 3 days): 0.5 µg equivalents/g tissue
CSCOC1C(=O)C2(C)C(OCSC)CC3OCC3(OC(C)=O)C2C(OC(=O)c2ccccc2)C2(O)CC(OC(=O)C(O)C(C=C(C)C)NC(=O)OC(C)(C)C)C(C)=C1C2(C)C (stereo not drawn) — clearance (male Sprague-Dawley rat, plasma; intravenous, 1 mg/kg): 3.9 L/h/kg
CCCC[C@H](NC(=O)CNC(=O)CNC(=O)CN1CCN(CC(=O)O)CCN(CC(=O)O)CC1)C(=O)N[C@H]1CC(=O)NCCCC[C@@H](C(N)=O)NC(=O)[C@H](Cc2c[nH]c3ccccc23)NC(=O)[C@H](CCCNC(=N)N)NC(=O)[C@@H](Cc2ccccc2)NC(=O)[C@H](Cc2c[nH]cn2)NC1=O [copper-64 labelled] — tissue uptake (female C57 mouse, B16/F1 melanoma, spleen; intravenous, 0.037 MBq, 0.5 h): 0.51 ± 0.07 %ID/g
Cc1cc2c(cc1C1(c3ncc(C(=O)O)cn3)CC1)C(C)(C)CCC2(C)C — LDL level (Sprague-Dawley rat, male, plasma; oral, 100 mg/kg, 1 h, sesame oil vehicle): 27 ± 3.5 mg/dL
[11CH3]c1ccc2nc(C3CCC3)n(-c3ccc4[nH]ncc4c3)c2n1 — absorbed radiation dose (human female, ovaries): 4.2 µSv/MBq
CC[C@H](C)[C@H](NC(=O)[C@H](CCCCN)NC(=O)[C@H](CS)NC(=O)[C@H](CC(N)=O)NC(=O)[C@H](C)NC(=O)[C@H](CCCNC(=N)N)NC(=O)[C@H](CCCNC(=N)N)NC(=O)[C@H](CC(N)=O)NC(=O)[C@H](CCCNC(=N)N)NC(=O)[C@H](CCCNC(=N)N)NC(=O)[C@H](C)NC(=O)[C@H](CS)NC(=O)[C@H](CO)NC(=O)[C@@H](NC(=O)[C@@H](NC(=O)[C@H](CS)NC(=O)[C@H](CCCCN)NC(=O)[C@@H](N)CCCNC(=N)N)C(C)C)[C@@H](C)CC)C(=O)N[C@@H](CC(C)C)C(=O)N[C@@H](CS)C(=O)N[C@@H](CC(N)=O)C(=O)O — single disulfide form (LC-MS; PBS; 0.1 mg/mL): 48%
CC[C@@H](C)N([11CH3])C(=O)c1nc(-c2ccccc2)c2ccccc2n1 — total volume of distribution (PET Logan analysis; male rhesus monkey, cerebellum; intravenous, dose not given, baseline): 2.4 mL/cm³
COc1cc2c(cc1OC)CN(CCCCn1ccc3cc(OCC[18F])ccc31)C2 — tracer uptake (male CD-1 mouse, kidney; intravenous, 2 h): 3.94 %ID/g
OCc1cn(Cc2ccc(-c3noc(-c4ccc(OCC[18F])c(C(F)(F)F)c4)n3)cc2)nn1 — tracer uptake (rat, heart; intravenous, 30 min): 1.19 %ID/g
CCCC(CCC)NC(=O)c1ccc(OC2OC(C(=O)O)C(O)C(O)C2O)c(O)c1 (stereo not drawn) — AUC(0-last) ratio (female Sprague-Dawley rats, plasma; oral, 50 mg/kg of parent drug; reference: 50 over 20 mg/kg dose): 1.27
CCNC(=O)OCc1c(COC(=O)NCC)c(-c2ccc(OC)cc2)n2c1Cc1ccccc1-2 — haematocrit (BALB/c nude mice, blood; dose not given, day 10): 43.1 ± 1.1%
C[Si]1(C[C@H](CN)CC(=O)O)CCCC1 — performance time (neuromuscular coordination; Wistar rat male; oral, 30 mg/kg, 3 h): 180 s
N=C(N)NCCC[C@@H]1NC(=O)[C@H](Cc2c[nH]c3ccccc23)NC(=O)[C@@H](CC2CCCCC2)NC(=O)[C@@H]2CCCN2C(=O)[C@@H](NC(=O)CCc2ccccc2)CCCNC1=O — beta rate constant (two-compartment model; C57BL/6J mice, plasma; intravenous, 1 mg/kg): 0.04 min⁻¹
CC(=O)[CH](C(C)=O)[Pt-2]1([S+](C)C)[O]C(C)=CC(C)=[O+]1 (stereo not drawn) — remaining in circulation (measured: platinum; rat; iv, dose not given, 24 h): ~26%
C=C(c1ncc(C(=O)O)cn1)c1cc2c(cc1C)C(C)(C)CCC2(C)C — LDL level (Sprague-Dawley rat, male, plasma; oral, 100 mg/kg, 2 h, sesame oil vehicle): 19 ± 11.1 mg/dL
COC(=O)C(c1ccccc1Cl)N1CCC(SCC(=O)c2cccc(OC)c2)C(=CC(=O)O)C1 (mixture of isomers) — deviation from nominal (HPLC-MS/MS; feline citrate plasma; 100 ng/mL, 48 h, 4 °C, storage stability): 6%
CNC(=O)N[C@]1(C)CCC[C@@]2(C)C3CC[C@@]4(C)C[C@]3(CCC21)CC4=O (single isomer, unassigned) — stability duration (rat, plasma; -80 °C): 101 days
COC(=O)C1OC(Oc2c(-c3ccccc3)oc3cc(O)c(O)c(O)c3c2=O)C(O)C(O)C1O (stereo not drawn) — organ weight (BALB/c mouse, thymus; 1 mg/kg): 0.25 ± 0.03 g
CCC(=O)N1CC=C(c2cc3c(Nc4cc5ncsc5cc4F)ncnc3s2)CC1 — half-life (metabolic stability; human, liver microsomes): 1.65 h
CC(C)C[C@H](NC(=O)C[C@H](O)[C@H](CC(C)C)NC(=O)[C@H](Cc1c[nH]cn1)NC(=O)CNC(=O)[C@@H](NC(=O)[C@H](C)NC(=O)[C@H](Cc1c[nH]c2ccccc12)NC(=O)[C@H](CCC(N)=O)NC(=O)[C@@H](Cc1ccccc1)NC(=O)CCNC(=O)CCNC(=O)CN1CCN(CC(=O)O)CCN(CC(=O)O)CCN(CC(=O)O)CC1)C(C)C)C(N)=O [lutetium-177 labelled] — absorbed dose (MIRD; mouse PC-3 xenograft, kidneys; intraperitoneal, 50 MBq, with PA): 7.6 Gy
C[Si](C)(C)C[C@H](CN)CC(=O)O — performance time (neuromuscular coordination; Wistar rat male; oral, 100 mg/kg, 1 h): 180 s
COc1cc(NC(C)=O)c2c(c1O)-c1c(OC)c(OC)cc3c1C(C2)N(C)CC3 (stereo not drawn) — remaining compound (rat brain homogenate; 0.5 µg/mL, 40 d, -20 °C, long-term storage): 110 ± 2.7%
Cc1ccc(/N=N/c2c(O)ccc3ccccc23)c(C)c1 — measured concentration (extracted rat blood QC samples; 0.2 µg/L, 4 h, room temperature, short-term stability): 0.208 µg/L
Nc1nc2c(ncn2CC(=O)N[C@@H](Cc2ccccc2)C(=O)N[C@@H](Cc2ccccc2)C(=O)N[C@@H](Cc2ccc(O)cc2)C(=O)O)c(=O)[nH]1 — nanofiber width (TEM; hydrogel in water; 2.0 wt%, pH 5.0 or 7.4, together with: alkaline phosphatase at pH 7.4): 14 nm
Cc1ccc(-c2ccc(-c3cc4sccc4o3)cn2)nc1 — absorption maximum (aqueous HEPES buffer; pH 7.4, zinc-free ligand): 347 nm
Cn1c(=O)oc2ccc(-c3ccc(CC(C#N)NC(=O)C4CNCCCO4)c(F)c3)cc21 (stereo not drawn) — skin exfoliation incidence (human; oral, 20 mg once daily, treatment-related AE, multiple ascending dose): 11.1%
O=C(O[C@H](CO)C(F)(F)F)N1C[C@@H]2[C@H](C1)[C@H]2c1ccn(-c2ccc([18F])nc2)n1 — parent fraction of radioactivity (Sprague-Dawley rat, plasma; dose not given, 5 min): 70%
Cc1ccc(OCC(=O)N(Cc2cccs2)c2ccn[nH]2)cc1 — remaining compound (Sprague-Dawley rat, liver microsomes; 10 µM, 60 min, together with: NADPH): ~1%
NC12CNCCNCC(NCc3ccc(CNC(=O)CCCC(=O)NCc4ccc(-c5nncnn5)cc4)cc3)(CNCCNC1)CNCCNC2.[64Cu+2] — mean absorbed dose (OLINDA dosimetry; gallbladder wall; pretargeting, 120-h interval): 0.0341 rad/mCi
